Published values from different studies.
Converted amounts (≈) assume the structure as drawn.

SMILES | tested on | assay | system | setting | how to read | endpoint | result
CC[C@H](C)[C@H](NC(=O)[C@H](C)NC(=O)[C@H](CCCCN)NC(=O)[C@H](CC(C)C)NC(=O)[C@H](C)NC(=O)[C@@H](NC(=O)[C@H](Cc1c[nH]cn1)NC(=O)[C@H](CC(C)C)NC(=O)[C@@H](NC(=O)[C@@H](NC(=O)[C@H](CCCCN)NC(=O)[C@H](C)NC(=O)[C@H](C)NC(=O)[C@H](CO)NC(=O)[C@H](CCCCN)NC(=O)[C@H](Cc1ccccc1)NC(=O)[C@@H](NC(=O)[C@H](CCCCN)NC(=O)[C@H](CC(C)C)NC(=O)[C@H](Cc1ccccc1)NC(=O)[C@H](CO)NC(=O)[C@H](CCCCN)NC(=O)[C@H](Cc1c[nH]c2ccccc12)NC(=O)[C@H](CCCCN)NC(C)=O)[C@@H](C)O)[C@@H](C)O)C(C)C)[C@@H](C)O)C(=O)N[C@@H](CO)C(=O)N[C@@H](CO)C(N)=O | Acinetobacter baumannii |  |  | 33 strains |  | MBC50 | 2 µg/mL (≈ 0.682 µM)
CC[C@H](C)[C@@H]1NC(=O)[C@@H]2CCCN2C(=O)[C@H](CC(C)C)NC(=O)[C@H](CC(C)C)NC(=O)CNC(=O)[C@@H](NC(=O)[C@@H](NC(=O)[C@H](CC(=O)O)NC(=O)CNC(=O)[C@@H](NC(=O)[C@H](C)NC(=O)CNC(=O)[C@H](CCCCN)NC(=O)[C@H](CC(C)C)NC(=O)[C@H](CC(C)C)NC(=O)[C@H](CCCCN)NC(=O)CNC(=O)[C@@H](NC(=O)[C@@H](N)CC(C)C)C(C)C)C(C)C)C(C)C)CSSC[C@@H](C(=O)O)NC1=O |  | RNA-seq, measured: Ltf mRNA | mouse traumatic brain injury, frontal cortex and hippocampus | dose not given | relative to: TBI plus compound vs TBI | log2 fold change | -2.83
COc1c(CCC[P+](c2ccccc2)(c2ccccc2)c2ccccc2)cc2c(c1OC)OCO2.[I-] | EKVX | SRB |  |  |  | LC50 | > -4 log M
CN1CCN(S(=O)(=O)c2cc([N+](=O)[O-])ccc2N(CCOS(C)(=O)=O)CCOS(C)(=O)=O)CC1 |  |  | NSG mice, sample BA PDX | intraperitoneal, 25 mg/kg weekly x3 | relative to: treated over vehicle | EFS ratio (T/C) | 4.2
COc1cc(CCC[P+](c2ccccc2)(c2ccccc2)c2ccccc2)c(OC)c2c1OCO2.[I-] | HCT-116 | SRB |  |  |  | LC50 | > -4 log M
CS(=O)(=O)CCCn1c(Cn2c(=O)n(CC(F)(F)F)c3ccncc32)cc2cc(Cl)ccc21 | respiratory syncytial virus | RT-qPCR | hospitalized infants 1-24 months, nasal swab | oral, 8 mg/kg daily, day 7, cohort 6-24 months | relative to: baseline | LS mean viral load change | -2.6 log10 copies/mL
CC(=O)c1c(C)c2cnc(Nc3ccc(C4CCN(CCS(C)(=O)=O)CC4)cn3)nc2n(C2CCCC2)c1=O |  | RECIST v1.1 | HR+/HER2- advanced breast cancer patients | dose not given, phase Ib all arms pooled |  | best response stable disease | 50.6%
Nc1ncnc2c1ncn2[C@@H]1O[C@@H]2COP(=O)(O)O[C@H]3[C@@H](O)[C@H](n4cnc5c(=O)[nH]cnc54)O[C@@H]3COP(=O)(O)O[C@H]2[C@H]1O | West Nile virus | RNA sequencing Reactome analysis, measured: Immune System (R-HSA-168256) | HFF-1 | concentration not given, upregulated pathways, together with: West Nile virus infection | relative to: WNV-infected without compound | fold enrichment | 2.49
C[C@H](C(=O)N[C@H]1COc2ccccc2[C@@H]1S(C)(=O)=O)c1ccc(F)cc1 | kainate receptor, rat | binding |  | 10 µM, Eurofins selectivity panel |  | inhibition | -3%
CCCCC1(CCCC)CN(c2ccccc2)c2cc(SC)c(OCC(=O)N[C@@H](C(=O)NCC(=O)O)c3ccccc3)cc2S(=O)(=O)C1 |  | measured: LDL cholesterol | human, serum | 20 mg once daily, day 2 |  | serum LDL-C | 100 mg/dL

Excerpt of the above:
SMILES | tested on | assay | system | setting | how to read | endpoint | result
CS(=O)(=O)CCCn1c(Cn2c(=O)n(CC(F)(F)F)c3ccncc32)cc2cc(Cl)ccc21 | respiratory syncytial virus | RT-qPCR | hospitalized infants 1-24 months, nasal swab | oral, 8 mg/kg daily, day 7, cohort 6-24 months | relative to: baseline | LS mean viral load change | -2.6 log10 copies/mL
